Measured values collected from several papers.
Protocols differ between the studies behind these lines. ± marks the error that the study gave.

Structure (SMILES) | test | system | conditions | quantity | result
Cc1ccc(CCC(=O)Nc2nnc(S(N)(=O)=O)s2)cc1 |  | BALB/c mouse, male, plasma | oral, 20 mg/kg, 6 h | unbound plasma concentration | 0.016 ng/mL
CCn1ncc2c1-c1cnc(N)c(c1)O[C@H](C)c1cc(F)ccc1-c1nn(C)nc1C2 |  | female Balb/c nude mouse | 3 mg/kg twice daily, 1 h, steady state | unbound brain concentration | 18 ± 2 nM
NS(=O)(=O)c1nnc(NC(=O)CCC2CC3CCC2C3)s1 (stereo not drawn) |  | mouse, plasma |  | unbound fraction | 0.06
CCn1ncc2c1-c1cnc(N)c(c1)O[C@H](C)c1cc(F)ccc1-c1nn(C)nc1C2 |  | Balb/c nude mouse, female, PDX, plasma | po, 0.04 mg/kg BID, 1 h, 5 days dosing | unbound concentration | 4.4 ± 0.3 nM
C[C@@H](N)COc1ccc(-c2cnc3ccc(N[C@H](C)c4cccc(F)c4)nn23)cc1 |  | female Balb/c nude mouse | 100 mg/kg once daily, 12 h (tau/2), steady state | unbound brain concentration | 63 ± 20 nM
COc1cc2c(Nc3ccc(Cl)c(Cl)c3F)ncnc2cc1OC[C@@H]1C[C@@H]2CN(C)C[C@@H]2C1 |  | FVB wild-type mouse | oral, 70 mg/kg, 2 h | unbound brain concentration | 0.78 ng/g
Cc1c(C(=O)O)ccc2c3n(nc12)[C@@H]1[C@H](C3)N(CC2CC2)[C@@]2(C(=O)Nc3cc(Cl)ccc32)[C@H]1c1cccc(Cl)c1F | equilibrium dialysis | BomTac:NMRI-Foxn1nu mouse, female, plasma | pH 7.4 | unbound fraction | 0.004
CN1CCN(C(=O)[C@H](CCCN[C@@H]2C[C@H]2c2ccc(F)cc2)NC(=O)c2ccc(-n3ccnn3)cc2)CC1 |  | NOD/SCID mouse MV4-11 xenograft, plasma | oral, 7.5 mg/kg/day, 24 h | unbound plasma concentration | 1.1 ng/mL
C=CC(=O)N1CC2(CCN(c3nc4c(c(-c5cc(O)cc6ccccc56)c3C#N)COC(C)(C)C4)C2)C1 |  | mouse, plasma | oral, 5 mg/kg | unbound AUC | 0.013 µM·h

Some of these lines once more:
Structure (SMILES) | test | system | conditions | quantity | result
CCn1ncc2c1-c1cnc(N)c(c1)O[C@H](C)c1cc(F)ccc1-c1nn(C)nc1C2 |  | Balb/c nude mouse, female, PDX, plasma | po, 0.04 mg/kg BID, 1 h, 5 days dosing | unbound concentration | 4.4 ± 0.3 nM
